Experimental data of several laboratories.
Each line is one published result; not all experiments were run side by side. Numbers after ± are the reported error.
Organism: Plasmodium falciparum

SMILES | effect on | method | strain | time | notes | IC50
CN(C(=O)c1ccn2ncc(-c3ccc(C(F)(F)F)cc3)c2c1)c1ccc(C#N)cn1 | parasite growth | – | 3D7 | – | – | 0.074 ± 0.032 µM
C[C@@H]1C(=O)O[C@@H](C)/C=C/C=C\[C@@H](C)[C@@H]2C=C[C@@H]3C[C@]4(C)O[C@@H]4[C@@H](C)[C@H]3[C@@H]2C(=O)C(Cl)(Cl)C1=O | – | HRP2 ELISA | 3D7 | – | – | 0.101 ± 0.055 µM
CC(C)C1=CC(=CNC2CCCCCCC2)N=C1c1ccc[nH]1 | parasite growth | SYBR Green I fluorescence | D6, chloroquine-sensitive | – | – | 1.08 µM
C[C@@H](C[C@@H](O)[C@H](O)C(C)(C)O)[C@@H]1CC[C@]2(C)C3=CC[C@H]4C(C)(C)C(=O)CC[C@]4(C)[C@H]3CC[C@@]12C | – | [3H]hypoxanthine incorporation | D6, chloroquine-sensitive | – | – | 37.6 ± 1.4 µM
CC(C)C1=CC(=CNC23CC4CC(CC(C4)C2)C3)N=C1c1ccc[nH]1 | parasite growth | SYBR Green I fluorescence | D6, chloroquine-sensitive | – | – | 0.026 µM
COc1ccc2nc3cc(Cl)ccc3c(NCCN3C(=O)c4ccc5c6c(ccc(c46)C3=O)C(=O)N(CCCn3ccnc3)C5=O)c2c1 | parasite growth | SYBR Green | 3D7 | 72 h | blood stage | 0.00844 µM
CCCCOC1C(C)C2C(C=CC3C(C)C=CC=CC(C)OC(=O)C(C)C(=O)C(Cl)(Cl)C(=O)C32)CC1(C)O (stereo not drawn) | parasite growth | ELISA | 3D7 | – | blood stage | > 11 µM
COc1ccc2c(c1)C1CC(C)(N2)c2c(C)nc3ccc(OC)cc3c21 (stereo not drawn) | schizont development | – | INDO | 12 h | early to late schizont | 54.3 µM
CCCCCCCCCCCCCCCCC1CC(=O)NCCCN(C)CCCCN(C)CCCN1C (stereo not drawn) | – | parasite LDH | D6 chloroquine-sensitive | 72 h | – | 0.14 µg/mL
CN(C)CCN1C(=O)c2ccc3c4c(ccc(c24)C1=O)C(=O)N(c1c2ccccc2nc2ccccc12)C3=O | parasite growth | SYBR Green | 3D7 | 72 h | blood stage | 0.545 µM
O=C(C1CCN(c2nnnn2-c2ccccc2)CC1)N1CCc2ccccc2C1 | parasite growth | SYBR Green | 3D7 | 72 h | blood stage | 23 µM
CC1C=CC=CC(C)C2C=CC3CC(C)(Cl)C(O)C(C)C3C2C(=O)C(Cl)(Cl)C(=O)C(C)C(=O)O1 (stereo not drawn) | parasite growth | ELISA | 3D7 | – | blood stage | 0.102 µM
CC1=N[C@H](C)Cc2c(-c3ccc4ccccc4c3)ccc(O)c21 | parasite growth | SYBR Green | NF54 | 96 h | blood stage | 0.74 µM
N[C@@H](CNC(=O)N[C@@H](CCC(=O)N(O)c1ccc(Br)cc1)C(=O)NCC(=O)O)C(=O)O | blood-stage growth | Giemsa-stained smears | 3D7 | 48 h | synchronous culture | 70 µM
CCCCCCCCCC1CC2CCC3CC(CCCCCCCCC)NC(=N1)N23 (stereo not drawn) | parasite growth | plasmodial LDH | D6 chloroquine-sensitive | – | – | 1.48 µM
COc1ccc2nc3cc(Cl)ccc3c(NCCN3CCN(C)CC3)c2c1 | parasite growth | flow cytometry | 3D7 | 72 h | – | 0.0152 ± 0.00597 µM
CC(C)(C)OC(=O)CNC(=O)[C@H](CCC(=O)N(O)c1ccc(Br)cc1)NC(=O)CC[C@H](N)C(=O)OC(C)(C)C | blood-stage growth | Giemsa-stained smears | 3D7 | 48 h | synchronous culture | 35 µM
COc1ccccc1CNC(=O)CCn1c(=O)[nH]c2ccsc2c1=O | parasite growth | – | NF54 | 72 h | blood stage | 0.14 µM
CCNCC#CCNc1ccnc2cc(Cl)ccc12 | parasite growth | LDH | – | – | – | 0.086 µM
Clc1ccc(C2=CC(c3ccc[nH]3)=NC2=CNC23CC4CC(CC(C4)C2)C3)cc1 | parasite growth | SYBR Green I fluorescence | D6, chloroquine-sensitive | – | – | > 0.25 µM
N#Cc1ccc2c(c1)CCCN2C(=O)C1CCN(c2nnnn2-c2ccccc2)CC1 | parasite growth | SYBR Green | 3D7 | 72 h | blood stage | > 10 µM
C#CCOc1ccc(C=NNC(=N)NN=Cc2ccc(OCC#C)cc2)cc1 | parasite growth | SYBR Green | D6 | 72 h | blood stage | 0.102 µM
Cn1c(N2CCN(S(=O)(=O)c3ccc(Cl)cc3)CC2)nc2ccccc21 | parasite growth | – | NF54 | – | blood stage | > 10 µM
O=[N+]([O-])c1cccc(C(=S)Nc2ccccc2)c1 | parasite growth | SYBR Green | 3D7 | 96 h | blood stage | 109 µM
CCC1=CC(c2ccc[nH]2)=NC1=CNC12CC3CC(CC(C3)C1)C2 | parasite growth | SYBR Green I fluorescence | D6, chloroquine-sensitive | – | – | 0.0025 µM
N#Cc1c(-c2cccs2)[n+]([O-])c2ccc(C(F)(F)F)cc2[n+]1[O-] | parasite growth | [3H]hypoxanthine incorporation | 3D7 chloroquine-sensitive | – | – | 0.89 ± 0.36 µM
O=C(C1CCN(c2nnnn2-c2ccccc2)CC1)N1CCCc2cccnc21 | parasite growth | SYBR Green | 3D7 | 72 h | blood stage | 4.4 µM

SMILES | effect on | method | strain | time | notes | IC50
CC1=C(C(=O)c2ccc([N+](=O)[O-])cc2)C(=O)c2ccccc2C1=O | parasite growth | SYBR Green | Dd2 | 72 h | synchronized ring stage | 0.513 ± 0.287 µM
Cc1[nH]c(C=NC23CC4CC(CC(C4)C2)C3)c(C)c1-c1ccc[nH]1 | parasite growth | SYBR Green I fluorescence | D6, chloroquine-sensitive | – | – | 1.42 µM
C[N+]1=C2C=C(NCCc3c[nH]c4ccccc34)C(=O)c3[nH]cc(c32)CC1 | parasite growth | SYBR Green I | W2 | – | – | ≤ 0.031 µM
O=C1CC2(CCN(c3cc(N4CCN(S(=O)(=O)c5ccc(Cl)s5)CC4)ncn3)CC2)Oc2ccccc21 | parasite growth | – | – | – | – | 6.68 ± 0.09 µM
CN(C)CCCOc1ccc2cc1Oc1ccc(cc1)CC1c3c(cc(OCCCN(C)C)c4c3Oc3cc5c(cc3O4)CCN(C)C5C2)CCN1C (stereo not drawn) | gametocyte viability | flow cytometry | NF54, stage II-V gametocytes | – | – | ~1 µM
Cc1ccc2c(c1)[n+]([O-])c(C#N)c(-c1ccco1)[n+]2[O-] | parasite growth | [3H]hypoxanthine incorporation | 3D7 chloroquine-sensitive | – | – | 0.93 ± 0.41 µM
COc1ccc2nc3cc(Cl)ccc3c(N3C(=O)c4ccc5c6c(ccc(c46)C3=O)C(=O)N(CCN(C)C)C5=O)c2c1 | parasite growth | SYBR Green | 3D7 | 72 h | blood stage | 0.419 µM
N#Cc1c(-c2cccs2)[n+]([O-])c2ccccc2[n+]1[O-] | parasite growth | [3H]hypoxanthine incorporation | 3D7 chloroquine-sensitive | – | – | 2.97 ± 0.33 µM
COc1ccc(-c2ccc(OC(C)C)c3c(OC)cccc23)c2c1C=NC(C)(C)C2 | parasite growth | SYBR Green | NF54 | 96 h | blood stage | 6.09 µM
O=C(C1CCN(c2nnnn2-c2ccncc2)CC1)N1CCCc2ccccc21 | parasite growth | SYBR Green | 3D7 | 72 h | blood stage | 3.7 µM
c1ccc(CCCNc2ncnc3cc(OCC4CCN(CCNc5ccnc6ccccc56)CC4)ccc23)cc1 | parasite growth | – | NF54 | – | blood stage | 0.071 µM
CCN(CC)C/C=C/CNc1ccnc2cc(Cl)ccc12 | parasite growth | – | Dd2 | – | – | 1.47 ± 0.12 µM
C1=CC(c2ccc[nH]2)=NC1=CNC1CCCCCCC1 | parasite growth | SYBR Green I fluorescence | D6, chloroquine-sensitive | – | – | > 2.5 µM
C=C1[C@@H]([C@@]2(C)C=CC(=O)C(C)(C)[C@@H]2CC(=O)OC)[C@@H](OC(C)=O)[C@H](OC(C)=O)[C@@]2(C)[C@H](c3ccoc3)C[C@H]3O[C@]132 | – | [3H]hypoxanthine incorporation | D6, chloroquine-sensitive | – | – | 17.1 ± 0.2 µM
CN(C)CCNC(=O)/C=C/[C@H](Cc1ccccc1)Nc1ccnc2cc(Cl)ccc12 | – | – | 3D7 | 48 h | – | 0.0301 ± 0.00106 µM
COc1cc2nc(N3CCN(C)CC3)nc(NC3CCN(C)CC3)c2cc1OC | parasite growth | SYBR Green I | 3D7 | 3 days | – | > 0.3 µM
N[C@@H](CCC(=O)N[C@@H](CCC(=O)N(O)c1ccc(Br)cc1)C(=O)NCC(=O)OC1CCCC1)C(=O)OC1CCCC1 | blood-stage growth | Giemsa-stained smears | 3D7 | 48 h | asynchronous culture | 30 µM
CNC(=O)c1ccc(-c2cnc3cnc(C(=O)N(C)c4ccc(Cl)cc4)cn23)cc1 | parasite growth | – | 3D7 | – | – | 0.108 ± 0.061 µM
CCCCCC1CC2CCCC3CC(C)N=C(N1)N32 (stereo not drawn) | parasite growth | plasmodial LDH | W2 chloroquine-resistant | – | – | 1.07 µM
COC(=O)c1cc2c([nH]c3ccccc32)c(-c2ccc3c(c2)OCO3)n1 | parasite growth | – | 3D7 | 48 h | blood stage | 7.16 µg/mL
CC1(C)Cc2c(-c3cccc4ccccc34)ccc(O)c2C=N1 | parasite growth | SYBR Green | NF54 | 96 h | blood stage | 1.63 µM
Cc1c(-c2ccc[nH]2)c[nH]c1C=NC12CC3CC(CC(C3)C1)C2 | parasite growth | SYBR Green I fluorescence | D6, chloroquine-sensitive | – | – | > 2.5 µM
COc1cc(C)c(-c2ccc(O)c3c2C[C@@H](C)N[C@@H]3C)c2cccc(O)c12 (single isomer, unassigned) | parasite growth | SYBR Green | NF54 | 96 h | blood stage | 0.234 µM
COC1=CC(c2ccc[nH]2)=NC1=CNC1CCCCC1 | parasite growth | SYBR Green I fluorescence | D6, chloroquine-sensitive | – | – | 0.049 µM
Cc1cc(N2CCC(C#N)(C3(C)CC3)C2=O)cc(C(=O)NCc2cc(F)cc(-c3cnn(C)c3)c2)n1 (racemic) | parasite growth | [3H]hypoxanthine incorporation | K1 | 72 h | – | 0.02 µM
O=C(C1CCN(c2nnnn2-c2cccnc2)CC1)N1CCCc2ccccc21 | parasite growth | SYBR Green | 3D7 | 72 h | blood stage | 2.4 µM
CC(C)(C)OC(=O)CNC(=O)[C@H](CCC(=O)N(O)c1ccc(Br)cc1)NC(=O)NC[C@H](N)C(=O)OC(C)(C)C | parasite growth | imaging | 3D7 | 48 h | blood stage | 30 µM

A few entries again:
SMILES | effect on | method | strain | time | notes | IC50
CN(C)CCNC(=O)/C=C/[C@H](Cc1ccccc1)Nc1ccnc2cc(Cl)ccc12 | – | – | 3D7 | 48 h | – | 0.0301 ± 0.00106 µM
C[C@@H](C[C@@H](O)[C@H](O)C(C)(C)O)[C@@H]1CC[C@]2(C)C3=CC[C@H]4C(C)(C)C(=O)CC[C@]4(C)[C@H]3CC[C@@]12C | – | [3H]hypoxanthine incorporation | D6, chloroquine-sensitive | – | – | 37.6 ± 1.4 µM
COc1ccc2nc3cc(Cl)ccc3c(NCCN3CCN(C)CC3)c2c1 | parasite growth | flow cytometry | 3D7 | 72 h | – | 0.0152 ± 0.00597 µM
CCCCCC1CC2CCCC3CC(C)N=C(N1)N32 (stereo not drawn) | parasite growth | plasmodial LDH | W2 chloroquine-resistant | – | – | 1.07 µM
CC(C)(C)OC(=O)CNC(=O)[C@H](CCC(=O)N(O)c1ccc(Br)cc1)NC(=O)CC[C@H](N)C(=O)OC(C)(C)C | blood-stage growth | Giemsa-stained smears | 3D7 | 48 h | synchronous culture | 35 µM
